Measurements pooled from the literature.
Each numbered part is a random draw from the data of one study; scales do not carry over between parts. Positions count from the first letter of the parent shown.

Study 1
Target: Max-binding protein MNT, bHLH-zipper, MAX partner unstated (MNT, Homo sapiens, UniProt Q99583, residues 220-300)
Method: protein-binding microarray
Form: double-stranded DNA, one strand shown
Sample: in vitro
Concentration: not given
Setting: k-mer, scored over probes, only values ≥0.25
Reading: higher = stronger binding
Construct (chain): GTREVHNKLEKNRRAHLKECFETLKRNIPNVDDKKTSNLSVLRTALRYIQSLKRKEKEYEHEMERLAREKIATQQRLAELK
Oligonucleotide | E-score
CGCGTGGC | 0.465
CCTCGTGA | 0.42
ATGCGTTC | 0.315
AACACGTG | 0.497
CCTCGTGC | 0.457
GCGCATGA | 0.372
CGGGTGGC | 0.264
CATGCCGG | 0.313

Study 2
Target: Ras GTPase-activating protein-binding protein 1, C-terminal RGG region (G3BP1, Homo sapiens, UniProt Q13283)
Sequence of UniProt Q13283 (whole entry, looked up): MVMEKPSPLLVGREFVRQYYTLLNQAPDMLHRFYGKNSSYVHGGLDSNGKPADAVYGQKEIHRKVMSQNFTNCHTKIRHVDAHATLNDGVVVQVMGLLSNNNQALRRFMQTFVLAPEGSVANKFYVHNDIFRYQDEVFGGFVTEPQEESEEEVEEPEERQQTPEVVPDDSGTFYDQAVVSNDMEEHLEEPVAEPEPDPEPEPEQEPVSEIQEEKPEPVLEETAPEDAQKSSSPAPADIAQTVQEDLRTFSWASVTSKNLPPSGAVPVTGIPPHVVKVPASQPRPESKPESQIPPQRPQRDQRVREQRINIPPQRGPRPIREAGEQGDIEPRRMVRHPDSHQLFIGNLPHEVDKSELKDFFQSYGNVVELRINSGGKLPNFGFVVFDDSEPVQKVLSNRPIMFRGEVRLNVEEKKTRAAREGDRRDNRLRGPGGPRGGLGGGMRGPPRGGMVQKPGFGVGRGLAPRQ
Method: RNA Bind-n-Seq
Form: RNA
Sample: in vitro
Concentration: 1 µM
Setting: whole 134-nt RNA, ends assumed
Added: 150 mM KCl
Baseline: input library
Reading: higher = stronger binding
Oligonucleotide | log2 enrichment
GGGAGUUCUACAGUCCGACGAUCCCUCAAGUCCUGUGCUACACAUCGUAUGUACCGAAUCGGGGCGGCGGGGCGGAAAGUAUUAUGUUACGCCGUUCGGAUCUGCACUUCCAGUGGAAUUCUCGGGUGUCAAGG | -0.667
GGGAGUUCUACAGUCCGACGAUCUGGAGAUGACAGAAAUGACUGGUGUGUCGCUGAAACGUGGGGCACUGGUUGUCGAAGAUAAUGACAGUGGAGUCCCAGUUGAAGAGACAAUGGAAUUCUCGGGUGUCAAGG | -2.18
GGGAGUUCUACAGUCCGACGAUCUAGUAACAGGGGUGAAGAUGCCUUUUGUGAUCCUGAAGAUGAAUGGGAACCCGACAUUACAGAUGCACCAGUUUCUUCACUUUCUAGAAGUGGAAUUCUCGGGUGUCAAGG | -2.18
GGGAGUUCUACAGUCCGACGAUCAGUCCUGUGCUACACAUCGUAUGUACCGAAUCGGGGAAAAGGGAAAAGGAAAAGGGGAAAGUAUUAUGUUACGCCGUUCGGAUCUGCACUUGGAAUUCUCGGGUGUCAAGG | -0.391
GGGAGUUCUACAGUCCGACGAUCUGGCGCUGGUGGCAUGCGGGGAGGAAGAGGUGGCCUCAUGGAUCGUGGUGGUCCCGGUGGAAUGUUCAGAGGUGGCCGUGGUGGAGACAGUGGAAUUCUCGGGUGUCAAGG | 1.59
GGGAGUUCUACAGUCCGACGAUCCACAGACAACACGCACCCACACAGACCCAGAGGGAAGGGGUUGGGAUGGGGACAGGGUGCACAGCAGGGCGGGGUAGGACCCCAGCCCCUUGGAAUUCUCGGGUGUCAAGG | 1.61

Study 3
Target: CCNE1, cyclin fold, Cln2 fusion (human)
Method: yeast growth competition, sequencing
Sample: yeast
Setting: strong parent motif
Baseline: not given
Reading: higher = stronger binding
Starting sequence: RBL1 docking peptide (human); GSAKRRLFGEDPP; partner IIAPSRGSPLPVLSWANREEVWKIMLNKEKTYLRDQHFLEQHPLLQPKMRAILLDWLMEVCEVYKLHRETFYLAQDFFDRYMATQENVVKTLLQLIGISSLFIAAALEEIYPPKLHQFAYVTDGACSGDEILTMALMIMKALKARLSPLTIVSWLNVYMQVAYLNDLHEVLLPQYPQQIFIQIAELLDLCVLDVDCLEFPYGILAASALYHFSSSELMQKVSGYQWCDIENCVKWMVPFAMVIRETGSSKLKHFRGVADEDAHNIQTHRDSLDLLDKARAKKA
Change | normalised enrichment score
GSAKGRLFGEDPP [R5G] | 0.0659
GSAWRRLFGEDPP [K4W] | 1.12
GSAKRRLEGEDPP [F8E] | -0.519
GSAKERLFGEDPP [R5E] | -0.0192
GSAKRRLIGEDPP [F8I] | 0.636
GRAKRRLFGEDPP [S2R] | 5.92
ISAKRRLFGEDPP [G1I] | 7.88

Other studies, line by line
Molecule | target | assay | test system | setting | scale | endpoint | value
PhoQ, residues 284 288 289 292 302 303 ASTSDA | PhoP, residues 12 14 15 18 19 HLGGL (Escherichia coli, UniProt P23836) | Sort-seq, refers to: YFP reporter | E. coli | PhoQ-PhoP variant library, added: 10 µM Mg2+ | baseline: high Mg2+ state, higher = stronger signaling | fold induction | 4.65

Repeated from above (study 2):
Oligonucleotide | log2 enrichment
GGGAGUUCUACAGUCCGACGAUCUGGCGCUGGUGGCAUGCGGGGAGGAAGAGGUGGCCUCAUGGAUCGUGGUGGUCCCGGUGGAAUGUUCAGAGGUGGCCGUGGUGGAGACAGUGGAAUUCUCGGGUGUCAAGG | 1.59
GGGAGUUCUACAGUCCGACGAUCCACAGACAACACGCACCCACACAGACCCAGAGGGAAGGGGUUGGGAUGGGGACAGGGUGCACAGCAGGGCGGGGUAGGACCCCAGCCCCUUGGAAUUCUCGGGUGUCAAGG | 1.61
